# Assay results from different studies.
# Compare with care: the assays were run in different laboratories. ± gives the spread as reported.
Substance,cell line,test,system,conditions,how to read,endpoint,result
CCCCCCCCCCCCCNCC(=O)N(CCCCN)CC(=O)N(CC(=O)N(CC(=O)N(CCN)CC(N)=O)C1CCCCC1)C1CCCCC1,HepG2,"cytotoxicity, MTT",,72 h,,TD50,105 ± 3.8 µg/mL
OC[C@H]1O[C@@H](n2cnc3c(O)nc(-n4cc(-[c-]5cccc5)nn4)nc32)C[C@@H]1O.[Fe+2].c1cc[cH-]c1,HEL,cell morphology,,,,minimum cytotoxic concentration,> 200 µM
O=C(Nc1nc2ccccc2[nH]1)c1ccc([N+](=O)[O-])cc1,BV-2,,,24 h,,highest non-cytotoxic concentration,300 µM
CN1CCC2(CC1)C/C(=N\N=C\c1ccc(O)cc1)c1ccccc1O2,PC-3,"cell growth, MTT",,48 h,,IC50,2.37 ± 0.09 µM
Nc1nc(O)c2ncn(COC(CO)CO)c2n1,HFF primary foreskin fibroblasts,"cell viability, CellTiter-Glo",,,,CC50,> 150 µM
C[C@H](NC(=O)[C@]1(Cc2ccccc2)CCN1C(=O)Oc1cccc2ccccc12)C(N)=O,HEL,microscopic cell morphology,,,,minimum cytotoxic concentration,> 100 µM
CCCCCCCCCCCCCNCC(=O)N(CCc1c[nH]c2ccccc12)CC(=O)N(CCCCN)CC(=O)N(CCN)CC(=O)N(CCc1c[nH]c2ccccc12)CC(N)=O,HepG2,"cytotoxicity, MTT",,72 h,,TD50,85 ± 10 µg/mL
CC(=N)NCCCC[C@H](N)C(=O)O,BV-2,"cell viability, resazurin",,,,CC50,> 50 µM
Cc1nc(C(NC(=O)c2ccc(-c3ccc(Cl)cc3)[nH]2)C2CCCCN2)sc1CO (mixture of isomers),U87/CD4/CCR5,"cell growth or viability, XTT",,72 h,,CC50,~30 µM
C[C@H](NC(=O)[C@@]1(Cc2ccccc2)CCN1C(=O)OCc1ccccc1)C(=O)N(C)C,HEL,microscopic cell morphology,,,,minimum cytotoxic concentration,> 100 µM
CC(=O)Oc1ccccc1C(=O)Nc1ncc([N+](=O)[O-])s1,J2 human intestinal enteroids,"cell viability, CellTiter-Glo",,24 h,,CC50,69.7 µM
CC(C)[C@H](NC(=O)[C@]1(Cc2ccccc2)CCN1C(=O)OCc1ccccc1)C(N)=O,HEL,microscopic cell morphology,,,,minimum cytotoxic concentration,> 100 µM
ILPWKWPWWPWRR,human red blood cells,haemolysis,peptide,"4 h, pH 7.4, 25 °C",,minimum haemolytic concentration,125 µg/mL
COC(=O)c1[nH]cc2c1[C@]1(CNc3ccc(Cl)cc31)c1[nH]c3ccc(Cl)cc3c1-2 (racemic),HepG2,cytotoxicity,,,,CC50,> 50 µM
Fc1cccc(/C=N/N=C/c2cccc(F)c2)c1,BV-2,,,24 h,,highest non-cytotoxic concentration,500 µM
C[C@H](NC(=O)[C@@]1(Cc2ccccc2)CCN1C(=O)OCc1ccccc1)C(=O)NC1CCCCC1,HEL,microscopic cell morphology,,,,minimum cytotoxic concentration,100 µM
Cc1ccc(C(=O)NC(=S)Nc2ccc(C(=O)O)cc2)c(C)c1,BHK-21,"cell growth or viability, MTT",,"100 µM, serum-free",,viability,> 90%
CC(C)(C)[C@H](NS(=O)(=O)C(F)(F)F)C(=O)N1C[C@H]2[C@@H]([C@H]1C(=O)N[C@H](C#N)C[C@@H]1CCNC1=O)C2(C)C,Vero E6 cells,,,concentration not given,,cytotoxicity,not toxic
C=C(C[C@H](N)C(=O)O)C(=O)NCc1ccc(F)cc1,SK-BR-3,necrosis,,24 h,,EC50,> 316 µM
CCCCCCCCCCCCCNCC(=O)N(CC(=O)N(CCCCN)CC(=O)N(CCN)CC(=O)N(CC(N)=O)C(C)C)C(C)C,HepG2,"cytotoxicity, MTT",,72 h,,TD50,> 200 µg/mL
CC(C)C[C@H](NC(=O)[C@]1(Cc2ccccc2)CCN1C(=O)OCc1ccccc1)C(N)=O,HEL,microscopic cell morphology,,,,minimum cytotoxic concentration,100 µM
C=C(C[C@H](N)C(=O)O)C(=O)NC1CC1,SK-BR-3,necrosis,,24 h,,EC50,275 µM
C[C@H](NC(=O)[C@]1(Cc2ccccc2)CCN1C(=O)OCc1ccccc1)C(N)=O,HEL,microscopic cell morphology,,,,minimum cytotoxic concentration,> 50 µM
CCCCCCCCCCCCCNCC(=O)N(CC(=O)N(CCCCN)CC(=O)N(CCN)CC(=O)N(CC(N)=O)c1ccccc1)c1ccccc1,HepG2,"cytotoxicity, MTT",,72 h,,TD50,81 ± 25 µg/mL
COc1ccc(C(=O)NC(=S)Nc2cc([N+](=O)[O-])ccc2Cl)cc1OC,BHK-21,"cell growth or viability, MTT",,"100 µM, serum-free",,viability,39%
Cc1c(O)cc(C[C@]23C[C@H](C[C@H](C)O2)c2c4c(c(O)c(C)c2O3)CO[C@]2(CCC[C@H](C)O2)C4)c(C=O)c1O,NCI-H1975,cell growth or viability,,,,IC50,7.3 µM
CCCCCCCCCCCCCNCC(=O)N(CC(=O)N(CCCCN)CC(=O)N(CCN)CC(=O)N(CC(N)=O)Cc1ccc(I)cc1)Cc1ccc(I)cc1,HepG2,"cytotoxicity, MTT",,72 h,,TD50,72 ± 24 µg/mL
O=C(Nc1nc2ccccc2[nH]1)c1cc(Cl)cc(Cl)c1,BV-2,,,24 h,,highest non-cytotoxic concentration,800 µM
CC1=C(CO)C(=O)O[C@@H]([C@@H](C)[C@H]2CC[C@H]3[C@@H]4C[C@H]5O[C@]56[C@@H](O)C=CC(=O)[C@]6(CO)[C@H]4CC[C@]23C)C1,B16-F10 melanoma,"cell viability, MTS",,,,IC50,11.6 ± 0.19 µM
CCN(CC)Cc1cc(Nc2ccnc3cc(Cl)ccc23)ccc1O,HepG2 empty vector control,"cell viability, MTT",,48 h,,IC50,18.9 µM
COc1ccc(C(=O)NC(=S)Nc2ccc(C(=O)O)cc2)cc1OC,BHK-21,"cell growth or viability, MTT",,"100 µM, serum-free",,viability,59%
C=C(C[C@H](N)C(=O)O)C(=O)Nc1ccccc1,SK-BR-3,necrosis,,24 h,,EC50,0.195 µM
CC(C)C[C@@H](NC(=O)CNC(=O)[C@@H](Cc1c[nH]c2ccccc12)NC(=O)[C@@H](CCCNC(=N)N)NC(=O)[C@@H](N)CCC(N)=O)C(=O)N[C@@H](CO)C(=O)N[C@H](CC(C)C)C(=O)N[C@@H](C)C(=O)N1CCC[C@H]1C(=O)N[C@@H](Cc1ccc(O)cc1)C(=O)N[C@H](CCCCN)C(=O)N[C@@H](CC(N)=O)C(=O)N[C@@H](Cc1ccccc1)C(=O)N[C@H](CCCNC(=N)N)C(=O)N[C@H](CCCNC(=N)N)C(=O)N[C@H](CC(C)C)C(=O)N[C@@H](CO)C(N)=O,human red blood cells,,,"128 µM, 18 h, 37 °C",relative to: Triton X-100,hemolysis,< 1%
NC(=O)[C@H](Cc1ccccc1)NC(=O)[C@@]1(Cc2ccccc2)CCN1C(=O)OCc1ccccc1,HEL,microscopic cell morphology,,,,minimum cytotoxic concentration,100 µM
CCCCCCCCN(CCCCCCCC)CC(=O)N(CC(=O)N(CCCCN)CC(=O)N(CCN)CC(=O)N(CC(N)=O)C1CCCCC1)C1CCCCC1,HepG2,"cytotoxicity, MTT",,72 h,,TD50,162 ± 29 µg/mL
OC[C@H]1O[C@@H](n2cnc3c(NCc4ccccc4)nc(-n4cc(-c5ccccc5)nn4)nc32)[C@H](O)[C@@H]1O,HEL,cell morphology,,,,minimum cytotoxic concentration,200 µM
O=C1Nc2ccc(Cl)cc2[C@@](C#CC2CC2)(C(F)(F)F)O1,"Caco-2 cells, CAR-transfected",refers to: CYP2B6,,"10 µM, 24 h, unit not given",relative to: vector control,expression level,5.63 ± 1.49
COc1ccc(C(=O)NC(=S)Nc2c(Cl)cc([N+](=O)[O-])cc2Br)cc1OC,BHK-21,"cell growth or viability, MTT",,"100 µM, serum-free",,viability,85%

# A few entries again:
Substance,cell line,test,system,conditions,how to read,endpoint,result
CCN(CC)Cc1cc(Nc2ccnc3cc(Cl)ccc23)ccc1O,HepG2 empty vector control,"cell viability, MTT",,48 h,,IC50,18.9 µM
C[C@H](NC(=O)[C@@]1(Cc2ccccc2)CCN1C(=O)OCc1ccccc1)C(=O)NC1CCCCC1,HEL,microscopic cell morphology,,,,minimum cytotoxic concentration,100 µM
